Published values gathered from unrelated publications.
Parts stem from different laboratories: compare values within a part only. Several values in a cell are separate wells, animals, samples, runs or records.

Block 1
Target: Ras GTPase-activating protein-binding protein 1, RRM domain (G3BP1, Homo sapiens, UniProt Q13283)
Chain of UniProt Q13283 (whole entry, looked up): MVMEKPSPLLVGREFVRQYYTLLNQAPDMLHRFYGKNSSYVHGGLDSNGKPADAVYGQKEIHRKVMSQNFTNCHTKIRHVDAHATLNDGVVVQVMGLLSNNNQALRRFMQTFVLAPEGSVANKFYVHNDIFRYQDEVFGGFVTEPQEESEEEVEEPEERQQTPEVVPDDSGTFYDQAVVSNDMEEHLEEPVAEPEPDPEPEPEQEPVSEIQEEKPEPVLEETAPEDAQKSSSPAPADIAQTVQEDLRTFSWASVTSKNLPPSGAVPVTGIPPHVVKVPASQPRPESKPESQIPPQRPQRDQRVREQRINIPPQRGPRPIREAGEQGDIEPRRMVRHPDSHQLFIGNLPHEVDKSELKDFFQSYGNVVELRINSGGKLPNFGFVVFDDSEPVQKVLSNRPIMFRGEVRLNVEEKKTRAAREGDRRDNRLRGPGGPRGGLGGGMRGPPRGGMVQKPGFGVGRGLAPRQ
Method: RNA Bind-n-Seq
Form: RNA
Medium: in vitro
Concentration: 1 µM
Setting: whole 134-nt RNA, ends assumed
Added: 150 mM KCl
Reference: input library
Direction: higher = stronger binding
`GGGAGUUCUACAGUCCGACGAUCCUCAAGUCCUGUGCUACACAUCGUAUGUACCGAAUCGGAGGAAAAAAAGGAGGAAAGUAUUAUGUUACGCCGUUCGGAUCUGCACUUCCAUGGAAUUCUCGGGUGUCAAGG` gave a log2 enrichment of -0.16.
The log2 enrichment of `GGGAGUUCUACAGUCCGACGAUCAGUCCUGUGCUACACAUCGUAUGUACCGAAUCGGGAGGGUUUUUUUGGGUUUUUGGGAAAGUAUUAUGUUACGCCGUUCGGAUCUGCACUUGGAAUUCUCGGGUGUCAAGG` is reported as 0.325.
For `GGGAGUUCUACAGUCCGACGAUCCCUGUGCUACACAUCGUAUGUACCGAAUCGGGGAAAAAGGGGAAAGGGGAAAAAAAGGGGAAAGUAUUAUGUUACGCCGUUCGGAUCUGCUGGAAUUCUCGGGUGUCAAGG`, the log2 enrichment was 0.444.
The log2 enrichment of `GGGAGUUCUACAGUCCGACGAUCUGGCCCUGGUGGCAUGUGGGGAGGAAGAGGUGGCCUCAUGGAUCGUGGUGGUCCCGGUGGAAUGUUCAGAGGUGGCCGUGGUGGAGACAGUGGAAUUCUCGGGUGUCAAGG` is reported as 0.778.
For `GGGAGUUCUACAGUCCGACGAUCACCAUGCAGGUGGGCAUCUGUGGGAAGUGGGGCAAGGGGGGGAUAGGGAGGGGGGUAACACUUUGGGAACAGGUGGUCCCAGGUCGUUUCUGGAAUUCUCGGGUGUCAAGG`, the log2 enrichment was -0.463.
`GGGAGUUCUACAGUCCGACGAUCCUCAAGUCCUGUGCUACACAUCGUAUGUACCGAAUCGGUGGUUUGGAAAAAGGAAAGUAUUAUGUUACGCCGUUCGGAUCUGCACUUCCAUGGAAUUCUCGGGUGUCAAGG` has a log2 enrichment of -0.189.
`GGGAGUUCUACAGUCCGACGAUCCCUCAAGUCCUGUGCUACACAUCGUAUGUACCGAAUCGGUUGGUUGGUUGGGAAAGUAUUAUGUUACGCCGUUCGGAUCUGCACUUCCAGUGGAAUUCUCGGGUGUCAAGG` gave a log2 enrichment of -0.191.
`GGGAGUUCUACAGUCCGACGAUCUAACUUUAGAGCAGGAUCUGAUGGAUAUGGCAGUGGACGUGGAUUUGGGGAUGGCUAUAAUGGGUAUGGAGGAGGACCUGGAGGUGGCAAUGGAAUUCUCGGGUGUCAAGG` has a log2 enrichment of -0.801.

Block 2
Target: TAR DNA-binding protein 43, full length, His tag (TARDBP, Homo sapiens, UniProt Q13148, residues 1-414)
Method: RNA Bind-n-Seq
Form: RNA
Medium: in vitro
Concentration: 20 nM
Setting: 6-mer, flanks averaged, single round
Added: 150 mM LiCl
Reference: input library
Direction: higher = stronger binding
For `CAGAGG`, “6-mer enrichment (R)” read 0.983.
Under “6-mer enrichment (R)”, `CGCCAA` is recorded as 0.894.
Under “6-mer enrichment (R)”, `UUAAAC` is recorded as 0.873.
`CAGAAG`: “6-mer enrichment (R)” 0.88.
`GCACUC`: “6-mer enrichment (R)” 0.874.
Under “6-mer enrichment (R)”, `CGUCUC` is recorded as 0.871.
Under “6-mer enrichment (R)”, `GUGACC` is recorded as 0.962.
Under “6-mer enrichment (R)”, `ACACGU` is recorded as 0.871.

Other studies, line by line
HTR2B: 5-hydroxytryptamine receptor 2B (HTR2B, Homo sapiens, UniProt P41595)
Chain of UniProt P41595 (whole entry, looked up): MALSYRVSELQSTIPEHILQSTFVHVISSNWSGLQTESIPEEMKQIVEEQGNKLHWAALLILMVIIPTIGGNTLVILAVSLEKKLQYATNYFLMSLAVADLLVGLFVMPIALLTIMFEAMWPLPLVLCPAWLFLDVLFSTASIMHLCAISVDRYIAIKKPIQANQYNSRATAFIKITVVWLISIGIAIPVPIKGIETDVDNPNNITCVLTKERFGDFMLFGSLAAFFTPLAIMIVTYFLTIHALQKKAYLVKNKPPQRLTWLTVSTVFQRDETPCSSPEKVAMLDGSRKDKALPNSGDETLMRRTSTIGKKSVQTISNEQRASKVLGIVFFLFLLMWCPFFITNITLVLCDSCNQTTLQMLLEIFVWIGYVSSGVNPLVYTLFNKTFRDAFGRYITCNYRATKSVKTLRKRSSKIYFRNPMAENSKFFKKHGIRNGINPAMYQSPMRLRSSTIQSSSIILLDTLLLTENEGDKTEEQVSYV
For `COc1ccc2c(c1)O[C@@H](c1ccc(OC)c(OC)c1)C[C@H]2NC(=O)C1(c2ccc3c(c2)OC(F)(F)O3)CC1`, the inhibition was -0.83% (HTR2B; ligand displacement; 10 µM).
For `CCOC(=O)CN(C(=O)c1ccn2ncc(-c3ccc(C(=O)NC)cc3)c2c1)c1ccc(Cl)cc1`, the plasma concentration was 115 nM (C57BL/6 IFN-γ knockout mouse, female, plasma; oral, 10 mg/kg, 4 h).
`CC(C)Cn1c(=O)n(C)c(=O)c2[nH]cnc21` gave a nuclei count of 0.246 z-score (mouse MPNST tumor cells; high-content nuclear imaging, measured: cell number; 10 µM, 12 h, mean of 2 replicates; reference: plate mean, higher = more cells).
For `COc1ccc(-c2c(Nc3ccccn3)[nH]c3c(C4=CCCCC4)c(-c4ccccc4)nn3c2=O)cc1`, “apparent steady-state clearance” read 1610 mL/h and 1500 mL/h and 1620 mL/h (human, plasma; oral, 200 mg twice daily).
With `CCS(=O)(=O)c1cc2cc(C[C@](O)(CC(C)(C)c3ccc(F)cc3C(N)=O)C(F)(F)F)[nH]c2cn1` the inhibition was 26.1% (HTR2B; ligand displacement; 10 µM).

Some of these lines once more (block 2):
Under “6-mer enrichment (R)”, `GUGACC` is recorded as 0.962.
Under “6-mer enrichment (R)”, `ACACGU` is recorded as 0.871.
